Assay results pooled from the literature.
Each numbered part is a random draw from the data of one study; scales do not carry over between parts. Changes are numbered by the printed parent chain.

Series 1
Target: XBP1, bZIP domain (human)
Method: DHFR protein complementation
Sample: yeast
Notes: single substitutions, most at no-binding floor
Reference: wild-type JUN-FOS pair
Direction: higher = stronger binding
Starting sequence: JUN, bZIP domain (human); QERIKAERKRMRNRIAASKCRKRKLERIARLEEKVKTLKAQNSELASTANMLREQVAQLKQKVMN; partner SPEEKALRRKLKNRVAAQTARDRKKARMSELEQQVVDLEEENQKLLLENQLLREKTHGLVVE
| Variant | binding fitness [natural log] |
| --- | --- |
| S43L | -0.551 |
| M51F | -0.804 |
| V35P | -1.48 |
| A49Y | -0.71 |
| E54Q | -1.42 |
| L31F | -1.46 |
| L45Y | -1.54 |
| L59G | -0.233 |
| R53V | -1.57 |
| A49D | -1.47 |
| S43V | -0.793 |
| L45N | -1.4 |
| Q41V | -0.852 |
| M51A | -0.573 |
| N42H | -1.33 |
| L52N | -1.48 |
| L45K | -1.49 |
| L31P | -1.44 |
| S43F | -0.864 |
| A29L | -1.18 |

Series 2
Target: Interferon regulatory factor 7, full length, phosphomimetic (IRF7, Homo sapiens, UniProt Q92985, residues 1-503, S101K/S471D/S472D/S475D/S476D/S477D/S483D/S484D/S487D)
Method: protein-binding microarray
Form: double-stranded DNA, one strand shown
Sample: in vitro
Tested at: 250 nM
Notes: 60-bp whole probe
Together with: salmon DNA 0.4 mg/ml
Reference: random background probes
Direction: higher = stronger binding
Constant ends, left off below: GCCTAGCAC … GTCTTGATTCGCTTGACGCTGCTG
Residues (chain): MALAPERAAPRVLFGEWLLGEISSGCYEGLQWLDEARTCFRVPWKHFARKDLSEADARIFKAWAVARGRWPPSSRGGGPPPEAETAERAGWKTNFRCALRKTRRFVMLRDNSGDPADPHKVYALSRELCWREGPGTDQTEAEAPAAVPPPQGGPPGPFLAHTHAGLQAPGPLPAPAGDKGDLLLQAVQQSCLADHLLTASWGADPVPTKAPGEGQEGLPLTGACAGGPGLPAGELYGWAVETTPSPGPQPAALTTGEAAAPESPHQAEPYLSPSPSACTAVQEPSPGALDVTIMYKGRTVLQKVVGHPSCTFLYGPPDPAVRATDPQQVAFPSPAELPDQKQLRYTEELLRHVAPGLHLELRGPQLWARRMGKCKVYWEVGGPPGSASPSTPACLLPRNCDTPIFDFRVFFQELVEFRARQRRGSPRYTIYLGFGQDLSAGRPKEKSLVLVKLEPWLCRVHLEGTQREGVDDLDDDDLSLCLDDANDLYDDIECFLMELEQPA
| Oligonucleotide | log fluorescence |
| --- | --- |
| GACGGTTTCCACACTGGGGACGTGCTA | 1.38 z-score |
| TTAAATATCAGTCTCGATTAGTGCTAG | 1.73 z-score |
| GACAGTTTCGGTTCCGGGACGTGCTAG | 11.6 z-score |
| TTAGATAGCAGTCTCGATTAGTGCTAG | 0.819 z-score |
| GACAATATCGGGACTGGAGACGTGCTA | -0.0931 z-score |
| GAGGAGATGAGAAACGATGAGTGCTAG | -0.569 z-score |
| TTAGGTTTCGGTCTCGGTAAGTGCTAG | 8.6 z-score |
| TCATTTACCCATCTCCAACTGTGCTAG | 2.01 z-score |
| GACGATCTCGGTATCGAGACGTGCTAG | 0.442 z-score |
| TCATTTTCATGCTCTTATACTGTGCTA | 1.29 z-score |
| GACCGTATCGACTTTCGGGACGTGCTA | 1.19 z-score |
| GACGATTTCGTGACTGGAGACGTGCTA | -0.0433 z-score |
| CTATGTCTGTTTTTGCTTTCGTGCTAG | 1.05 z-score |
| TCACCTCTGCATTCCCTACTGTGCTAG | 0.435 z-score |
| GACGGGTTCCTTCTCCTGACGTGCTAG | 0.486 z-score |
| TTAGGACTGGGGCTCGGTTAGTGCTAG | 0.389 z-score |

Series 3
Target: RNA binding protein fox-1 homolog 2, RRM domain, GST-SBP tag (RBFOX2, Homo sapiens, UniProt O43251-10, residues 100-194)
Method: RNA Bind-n-Seq
Form: RNA
Sample: in vitro
Tested at: 365 nM
Notes: natural RNA segment, single round, ends assumed
Reference: no-protein control
Direction: higher = stronger binding
Constant ends, left off below: GGGAGUUCUACAGUCCGACGAUC … UGGAAUUCUCGGGUGCCAA
| Oligonucleotide | RBNS enrichment (R) |
| --- | --- |
| GUUGCUUGUGUAAUAAAGCAUGUCCUUCGUAUGUCACAGUUUGGGGCAACGGAAGUCUUUUAGUGAUGGCUAAUGGGUCUGGGCAGCAUCCCUUCAUGAAUUUUUUUUUA | 2.46 |
| CUCCCAGUCUGGGCAAAGGAGUGCUAUGCGGAAUUCUCUGCAUAGCAGAAAAGCUCCCACCAUUUUCUUUUGAUGUGGUUUUAAAGUCUCACGUUCUCUAUAAUAGAAAC | 0.381 |
| CCAGUUAACAUGUAGAGCAUGGGCUCAAGAUGAAACCUUGUGUUUAUAGAACGGAUGUUUAGGUGAAGAAAUUGGUUCUUGGUUAUGUUUACAGCACUUGGGAUUGUGUU | 3.99 |
| UAUAAAUAUUAUAUAUUUUAUUUUUCAUACAUGUUUGAAUUGCGGAUCCAUGGAUGUUCCAUCUGUAGGACCAACUUGAUGUGCCCAUCCUGACAUUGUAUGCCACAAGA | 0.761 |
| AUGAAUGUCAACCCACAGCAGCCGGCUAGGCAAAUGAGGCAGAGGGACUCUGCUCAGCCCUCUGUAUAUCACUGUCAGGGUGGGUACGGCUCAUUGGUUCUGAUUUGCCC | 0.728 |
| CUGCUCUCCUGUGUGUGCUGAGGGCCAGCCUCACCCCAGGCUAGCCUGGACCCCCAGUGCUCCCUGUGACAAUACUGUGAUAUCAAAAAACUGAUAAUAAUUGGGACAUC | 0.527 |
| UUCCUAAGUCUCAAGGGCUAGUUUCCCUGAGGAGCCCAGGCCUAACCCUCUCUCUCUCAAGCUGCCACAUGUAACGCCCUUGCUGCUUCUGUGUGUGGGUGAUUGGAUGU | 0.361 |
| UACCCAUCCCCUGAUGCCCAGGUCACCGGGAGGGCUGCUGGGAGCCUCUCCUGUCCCCGCCGGGCAGUGUCACUGAGUCCUUGAAAUCCUCCCCUGCCCCGCGGGUCUCU | 0.443 |
| UACUCCAUUGGAGGGAAAGGAAGAGUCUUAGAAUUCCUAAGGGAACCUUAGCAUAAAGGUUUUGGGGAAGGAGGCCGUAGGCCGGCCCGGAGGAAGCAAUUCCACUUGGU | 0.482 |
| CUGUGCUCUGGGGGUCCCUUGCUUAGCCUGUGCUGGACCAGCUGGCCUGGGGUCCCUCUGAAGAGACCUUGGCUGCUCACUGUCCACAUGUGAACUUUUUCUAGGUGGCA | 0.392 |
| GCUGACCUCACCCUUACUUUUAUACUUUAGUAUGAAACUGAUGAGAACUUUGGUAGUGAGUAUUUUUUUUAUAUAUAUACAUAUAUAUGUACUAUCUAUAUAUAUAUCUC | 0.767 |
| ACCUCCUUGGGCUAUAUUUUCUCUCCUCGAGUUGCUCCUCAUGGCUGGGCUCAUUUCGGUCCCUUUCUCCUUGGUCCCAGACCUUGGGGGAAAGGAAGGAAGUGCAUGUU | 0.661 |

Series 4
Target: POU, POU domain (Salpingoeca helianthica)
Method: Spec-seq
Form: double-stranded DNA, one strand shown
Sample: in vitro
Tested at: not given
Notes: whole probe, mean of replicates
Reference: not given
Direction: lower = stronger binding
Constant ends, left off below: GAGTCGTCTCGTCAGCAC … CCGTAGAGCACTCAGGTC
Construct (chain): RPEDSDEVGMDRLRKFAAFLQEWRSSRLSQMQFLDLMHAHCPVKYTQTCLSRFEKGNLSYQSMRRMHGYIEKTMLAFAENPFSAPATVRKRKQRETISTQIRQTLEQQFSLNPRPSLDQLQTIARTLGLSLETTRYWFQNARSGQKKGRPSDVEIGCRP
| Oligonucleotide | relative binding energy |
| --- | --- |
| GGGGTAAT | 0.66 ln ratio |
| CTGGTAAT | 0.506 ln ratio |
| GTCATAAT | 0.451 ln ratio |
| ATCAGCAT | 1.16 ln ratio |
| CGCATAAT | 0.504 ln ratio |
| ATGCGGCA | 1.48 ln ratio |
| ATCCCTAT | 1.09 ln ratio |
| ACGATAAT | 0.347 ln ratio |
| ATGCTATG | 1.12 ln ratio |
| GGTTTAAT | 0.016 ln ratio |
| TGCCTAAT | 0.764 ln ratio |
| ATTCGCAT | 1.2 ln ratio |
| ATGCAAGC | 1.36 ln ratio |
| TTGCTAAT | 0.521 ln ratio |
| TCAATAAT | -0.12 ln ratio |
| ATTGGCAT | 1.38 ln ratio |
| ATTTGTAT | 0.844 ln ratio |
| ATAGAAAT | 1.2 ln ratio |
| GCCTTAAT | 0.44 ln ratio |
| CTGTTAAT | -0.457 ln ratio |
| ATGCGTAG | 1.38 ln ratio |
| CAATTAAT | -1.61 ln ratio |
| ATACATAT | 1.13 ln ratio |
| ATCCTCAT | 1.38 ln ratio |
| ATTAAGAT | 0.401 ln ratio |

Series 5
Target: Histone acetyltransferase KAT6A, winged helix 2, GST fusion (KAT6A, Homo sapiens, UniProt Q92794, residues 85-181)
Method: protein binding microarray
Form: double-stranded DNA, one strand shown
Sample: in vitro
Tested at: not given
Notes: 8-mer, flanks averaged, mean of 2 arrays, mostly near background
Reference: not given
Direction: higher = stronger binding
Construct (chain): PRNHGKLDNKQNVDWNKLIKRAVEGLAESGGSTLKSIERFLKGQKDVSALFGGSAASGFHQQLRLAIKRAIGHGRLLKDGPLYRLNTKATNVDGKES
| Oligonucleotide | E-score |
| --- | --- |
| ATCTATCG | -0.065 |
| CTCCCCGC | 0.239 |
| AGAGGTCC | 0.0489 |
| AGATACGA | -0.0811 |
| GTTTTAGA | 0.0491 |
| CAATCGGG | -0.052 |
| AAGAAATA | 0.163 |
| AAGAAGAC | -0.127 |
| ATCAAGCA | 0.0962 |
| GGCTACGA | 0.063 |
| CTCGTTAC | -0.0343 |
| CAGCGTAG | 0.137 |
| GGGCCCAC | 0.16 |
| CAGATTTC | 0.0471 |
| GCCCTCGA | 0.0806 |
| GGCTCCAA | 0.00983 |
| ATCAGTTC | -0.0958 |
| GAATGCAC | 0.105 |
| CGCCTTAG | -0.0342 |
| CGATGATC | 0.00724 |
| ATGTAATG | -0.056 |
| AAAGTGTC | -0.112 |
| CGGAAACG | -0.0681 |
| GCCGTCGA | 0.109 |
| CGCAGGAG | 0.136 |

Excerpt of the above (series 3):
| Oligonucleotide | RBNS enrichment (R) |
| --- | --- |
| CCAGUUAACAUGUAGAGCAUGGGCUCAAGAUGAAACCUUGUGUUUAUAGAACGGAUGUUUAGGUGAAGAAAUUGGUUCUUGGUUAUGUUUACAGCACUUGGGAUUGUGUU | 3.99 |
| UAUAAAUAUUAUAUAUUUUAUUUUUCAUACAUGUUUGAAUUGCGGAUCCAUGGAUGUUCCAUCUGUAGGACCAACUUGAUGUGCCCAUCCUGACAUUGUAUGCCACAAGA | 0.761 |
| AUGAAUGUCAACCCACAGCAGCCGGCUAGGCAAAUGAGGCAGAGGGACUCUGCUCAGCCCUCUGUAUAUCACUGUCAGGGUGGGUACGGCUCAUUGGUUCUGAUUUGCCC | 0.728 |
| CUGCUCUCCUGUGUGUGCUGAGGGCCAGCCUCACCCCAGGCUAGCCUGGACCCCCAGUGCUCCCUGUGACAAUACUGUGAUAUCAAAAAACUGAUAAUAAUUGGGACAUC | 0.527 |
| UACCCAUCCCCUGAUGCCCAGGUCACCGGGAGGGCUGCUGGGAGCCUCUCCUGUCCCCGCCGGGCAGUGUCACUGAGUCCUUGAAAUCCUCCCCUGCCCCGCGGGUCUCU | 0.443 |
| GCUGACCUCACCCUUACUUUUAUACUUUAGUAUGAAACUGAUGAGAACUUUGGUAGUGAGUAUUUUUUUUAUAUAUAUACAUAUAUAUGUACUAUCUAUAUAUAUAUCUC | 0.767 |
| CUGUGCUCUGGGGGUCCCUUGCUUAGCCUGUGCUGGACCAGCUGGCCUGGGGUCCCUCUGAAGAGACCUUGGCUGCUCACUGUCCACAUGUGAACUUUUUCUAGGUGGCA | 0.392 |
| UACUCCAUUGGAGGGAAAGGAAGAGUCUUAGAAUUCCUAAGGGAACCUUAGCAUAAAGGUUUUGGGGAAGGAGGCCGUAGGCCGGCCCGGAGGAAGCAAUUCCACUUGGU | 0.482 |
| CUCCCAGUCUGGGCAAAGGAGUGCUAUGCGGAAUUCUCUGCAUAGCAGAAAAGCUCCCACCAUUUUCUUUUGAUGUGGUUUUAAAGUCUCACGUUCUCUAUAAUAGAAAC | 0.381 |
| ACCUCCUUGGGCUAUAUUUUCUCUCCUCGAGUUGCUCCUCAUGGCUGGGCUCAUUUCGGUCCCUUUCUCCUUGGUCCCAGACCUUGGGGGAAAGGAAGGAAGUGCAUGUU | 0.661 |
| UUCCUAAGUCUCAAGGGCUAGUUUCCCUGAGGAGCCCAGGCCUAACCCUCUCUCUCUCAAGCUGCCACAUGUAACGCCCUUGCUGCUUCUGUGUGUGGGUGAUUGGAUGU | 0.361 |
